Measurements from different studies.
A part holds a random share of what one study measured. Substitutions count along the parent as printed.
Sequence of UniProt Q9Y4K4 (whole entry, looked up): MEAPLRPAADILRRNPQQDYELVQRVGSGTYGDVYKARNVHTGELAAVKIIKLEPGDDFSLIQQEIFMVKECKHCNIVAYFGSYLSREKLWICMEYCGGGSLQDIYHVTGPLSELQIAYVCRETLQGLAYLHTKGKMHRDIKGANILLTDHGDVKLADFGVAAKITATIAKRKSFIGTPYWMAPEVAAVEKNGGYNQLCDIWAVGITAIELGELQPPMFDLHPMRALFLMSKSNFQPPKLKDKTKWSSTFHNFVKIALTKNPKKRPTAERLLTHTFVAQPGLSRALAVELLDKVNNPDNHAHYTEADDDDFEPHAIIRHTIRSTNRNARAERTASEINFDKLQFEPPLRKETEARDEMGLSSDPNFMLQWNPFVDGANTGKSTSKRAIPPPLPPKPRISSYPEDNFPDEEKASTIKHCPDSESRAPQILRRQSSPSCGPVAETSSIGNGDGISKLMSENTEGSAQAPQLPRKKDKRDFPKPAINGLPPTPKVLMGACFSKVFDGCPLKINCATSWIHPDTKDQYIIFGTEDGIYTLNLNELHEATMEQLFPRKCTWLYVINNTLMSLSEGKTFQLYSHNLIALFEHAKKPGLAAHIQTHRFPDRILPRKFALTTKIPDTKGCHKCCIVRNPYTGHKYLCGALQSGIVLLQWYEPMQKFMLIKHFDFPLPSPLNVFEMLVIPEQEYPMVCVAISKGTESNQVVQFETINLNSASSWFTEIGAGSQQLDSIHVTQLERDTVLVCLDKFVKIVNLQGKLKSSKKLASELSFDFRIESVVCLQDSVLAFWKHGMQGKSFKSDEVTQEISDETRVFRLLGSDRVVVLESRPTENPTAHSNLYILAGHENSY

Study 1 — target: CRIPT, C-terminal peptide; technique: DHFR complementation, deep sequencing; sample: yeast; relative to: wild type; direction: higher = weaker binding; endpoint: binding free energy change
Notes: single substitutions, model-inferred values
Parent: ERBIN, PDZ domain 1 (human); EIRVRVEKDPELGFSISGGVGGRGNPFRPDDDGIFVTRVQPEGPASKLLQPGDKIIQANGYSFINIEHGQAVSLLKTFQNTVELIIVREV; partner TKNYKQTSV
Substitution = P29Y; result = 0.168 kcal/mol
Substitution = G21H; result = 0.163 kcal/mol
Substitution = L48Y; result = 0.0488 kcal/mol
Substitution = F14E; result = 0.365 kcal/mol
Substitution = Q79S; result = 0.037 kcal/mol
Substitution = D31C; result = 0.309 kcal/mol
Substitution = I66E; result = 0.643 kcal/mol
Substitution = A71V; result = 0.601 kcal/mol

Study 2 — technique: RNAcompete; form: RNA; sample: in vitro; tested at: 20 nM; notes: 7-mer, probes averaged, single round; relative to: mean of 7-mers; direction: higher = stronger binding; endpoint: 7-mer Z-score
Target: PABPC1L2, full length, GST fusion (mouse, UniProt A0ABA7IW68)
Target sequence (chain): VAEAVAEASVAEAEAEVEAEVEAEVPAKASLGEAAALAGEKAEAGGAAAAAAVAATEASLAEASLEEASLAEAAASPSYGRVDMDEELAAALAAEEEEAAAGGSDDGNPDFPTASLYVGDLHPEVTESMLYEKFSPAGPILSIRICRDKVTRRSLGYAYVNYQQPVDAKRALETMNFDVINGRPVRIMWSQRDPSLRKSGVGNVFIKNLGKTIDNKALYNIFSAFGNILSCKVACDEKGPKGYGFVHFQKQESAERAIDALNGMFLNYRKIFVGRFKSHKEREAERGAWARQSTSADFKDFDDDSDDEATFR
Oligonucleotide = UUUCCUC; result = -0.472
Oligonucleotide = AUUGCGC; result = -0.021
Oligonucleotide = UGGAGGG; result = 0.218
Oligonucleotide = GAGCGGG; result = 0.149
Oligonucleotide = AGUUCGU; result = -0.4
Oligonucleotide = CUACGGC; result = -0.365
Oligonucleotide = AACGACG; result = 0.278
Oligonucleotide = AUAAGCC; result = -0.262

Study 3 — technique: RNA Bind-n-Seq; form: RNA; sample: in vitro; tested at: 365 nM; relative to: no-protein control; direction: higher = stronger binding; endpoint: RBNS enrichment (R)
Target: RNA binding protein fox-1 homolog 2, RRM domain, GST-SBP tag (RBFOX2, Homo sapiens, UniProt O43251-10, residues 100-194)
Notes: natural RNA segment, single round, ends assumed
Target sequence (chain): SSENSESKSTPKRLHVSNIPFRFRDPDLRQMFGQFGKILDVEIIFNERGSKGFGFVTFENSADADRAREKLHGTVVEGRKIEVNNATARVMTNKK
Oligonucleotide = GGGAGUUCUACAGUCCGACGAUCUGGAUUGUGACUUGUAGACUCAAGCUAACCUUACUGCCUCUUUUUCACACUUGUUGAAAAGUCUGUGAAGAACAUAGUUAAAGAUCUCCAACUUUGGAAAAUAUACAUGAUGGAAUUCUCGGGUGCCAA; result = 0.531
Oligonucleotide = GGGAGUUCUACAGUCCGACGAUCCUCCAGAAGCACCUCAACAAUGUCAGUGGCUGAGGCUGCACUCAGAGGGAUGACUGCUGGGGGUAGACUGGGUGCCAGGGGCCAUGGGCCCAGGACCCAGUCUUGGCCAUUGGAAUUCUCGGGUGCCAA; result = 0.602
Oligonucleotide = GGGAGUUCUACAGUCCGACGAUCUUGACACACUCCAGUCCUGAGCUGCUCUGCUGCCGCUUCCCUCAGUUAACCUUCUCACCGAAACCUUAGUUCAGGAUGGAUCAAGUGCUGUGACAGUGACAGCUCAUUUCUGGAAUUCUCGGGUGCCAA; result = 0.53
Oligonucleotide = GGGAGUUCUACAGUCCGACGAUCACAUCUCCACCCCACUUACCAAUAAAAGCUACCCUUUCCACCCAGUGGAAUGGGAUGGCAGAAAACCAACAGUGGCCCAGAUGGACCUCCAAGUCUGCUUUUCAGGUGUAUGGAAUUCUCGGGUGCCAA; result = 0.294
Oligonucleotide = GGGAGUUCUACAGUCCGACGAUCCUAUUUUCUGUUGCCACAGGCUUUAAAGAAACUUUCUGAAUGGGGCCUGGCCCACUUCUCUUUCUCUCCUCCAAAUGAGGAGUUAAAAAUGUUACUAGCAUAGCCCACCCUGGAAUUCUCGGGUGCCAA; result = 0.605
Oligonucleotide = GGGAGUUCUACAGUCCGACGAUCGCUUUAAAGGUGGUAGUGAUUUUUAUUUUGGAAGAAUCAUGUUACCUUUUUGUUAAAUAAAAUUUGUACUCAAAUGAUGAUGUCACUGUUUUUAAUGUGCAGGUAUUGAAUGGAAUUCUCGGGUGCCAA; result = 0.556
Oligonucleotide = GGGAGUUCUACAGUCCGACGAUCUUCUAACUGUCCGACAGGCUCCCAGUCUCUGUGUGUCCAGGCCAGAGGACCAGCACUCAGGAGAGUCUGCCUUUGGAUUGAGUUCCCAAAUUAGAGUCAUCGCACCAGGGUGGAAUUCUCGGGUGCCAA; result = 0.28
Oligonucleotide = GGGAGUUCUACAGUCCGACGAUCAUAAGUUUCCUUGGAGUUUUAUGCACAUGUUUGAUUGUUCUAGAUAAAUUGUCAUAAACAUUCUAGGAAGUUCAAGAAAAUGAUGCAGUACCCAGCACAUGAAAGACCUAUGGAAUUCUCGGGUGCCAA; result = 0.338

Single results of other studies
Compound = CCN(CC)CCNC(=O)c1c(C)[nH]c(/C=C2\C(=O)Nc3ccc(Cl)cc32)c1C; target = Mitogen-activated protein kinase kinase kinase kinase 5 (MAP4K5, Homo sapiens, UniProt Q9Y4K4); read-out = enzyme activity; action = inhibitor; tested at = 0.5 µM; relative to = control; endpoint = remaining activity; result = 0.833%

A few entries again (study 1):
Substitution = Q79S; result = 0.037 kcal/mol
Substitution = D31C; result = 0.309 kcal/mol
Substitution = I66E; result = 0.643 kcal/mol
Substitution = A71V; result = 0.601 kcal/mol
